Assay results pooled from the literature.
± marks the error that the study gave.
CYP1A1: Cytochrome P450 1A1 (CYP1A1, Homo sapiens, UniProt P04798)
Chain of UniProt P04798 (whole entry, looked up): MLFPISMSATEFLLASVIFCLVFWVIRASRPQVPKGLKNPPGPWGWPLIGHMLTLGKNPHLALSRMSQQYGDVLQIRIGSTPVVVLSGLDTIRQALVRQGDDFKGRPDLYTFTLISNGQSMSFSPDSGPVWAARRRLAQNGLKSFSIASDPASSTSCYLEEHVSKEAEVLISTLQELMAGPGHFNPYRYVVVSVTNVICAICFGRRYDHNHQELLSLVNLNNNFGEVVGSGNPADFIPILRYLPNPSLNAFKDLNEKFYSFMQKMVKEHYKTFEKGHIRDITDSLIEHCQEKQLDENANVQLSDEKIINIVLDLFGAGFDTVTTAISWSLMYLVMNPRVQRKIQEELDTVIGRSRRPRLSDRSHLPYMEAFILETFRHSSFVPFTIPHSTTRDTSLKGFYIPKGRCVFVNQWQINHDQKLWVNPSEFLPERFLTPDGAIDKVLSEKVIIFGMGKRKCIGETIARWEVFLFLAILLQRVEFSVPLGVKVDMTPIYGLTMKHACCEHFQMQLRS
ALB: Albumin (ALB, Bos taurus, UniProt P02769)
Chain of UniProt P02769 (whole entry, looked up): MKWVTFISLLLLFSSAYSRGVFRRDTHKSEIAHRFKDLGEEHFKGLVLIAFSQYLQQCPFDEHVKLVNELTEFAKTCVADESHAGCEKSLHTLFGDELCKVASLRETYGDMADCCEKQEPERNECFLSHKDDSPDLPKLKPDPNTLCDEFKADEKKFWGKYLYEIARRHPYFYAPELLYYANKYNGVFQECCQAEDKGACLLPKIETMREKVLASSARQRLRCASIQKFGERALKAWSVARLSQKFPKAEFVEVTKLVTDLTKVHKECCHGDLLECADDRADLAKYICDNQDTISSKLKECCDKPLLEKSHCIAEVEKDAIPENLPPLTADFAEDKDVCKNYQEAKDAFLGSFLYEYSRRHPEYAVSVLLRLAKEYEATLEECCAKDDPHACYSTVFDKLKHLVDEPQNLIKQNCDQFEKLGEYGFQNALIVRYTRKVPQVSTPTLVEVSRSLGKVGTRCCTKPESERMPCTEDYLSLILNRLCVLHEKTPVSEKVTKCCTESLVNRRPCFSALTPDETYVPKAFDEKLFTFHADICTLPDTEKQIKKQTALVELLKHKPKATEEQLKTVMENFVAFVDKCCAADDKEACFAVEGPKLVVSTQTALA
CYP11A1: Cholesterol side-chain cleavage enzyme, mitochondrial (CYP11A1, Homo sapiens, UniProt P05108)
Chain of UniProt P05108 (whole entry, looked up): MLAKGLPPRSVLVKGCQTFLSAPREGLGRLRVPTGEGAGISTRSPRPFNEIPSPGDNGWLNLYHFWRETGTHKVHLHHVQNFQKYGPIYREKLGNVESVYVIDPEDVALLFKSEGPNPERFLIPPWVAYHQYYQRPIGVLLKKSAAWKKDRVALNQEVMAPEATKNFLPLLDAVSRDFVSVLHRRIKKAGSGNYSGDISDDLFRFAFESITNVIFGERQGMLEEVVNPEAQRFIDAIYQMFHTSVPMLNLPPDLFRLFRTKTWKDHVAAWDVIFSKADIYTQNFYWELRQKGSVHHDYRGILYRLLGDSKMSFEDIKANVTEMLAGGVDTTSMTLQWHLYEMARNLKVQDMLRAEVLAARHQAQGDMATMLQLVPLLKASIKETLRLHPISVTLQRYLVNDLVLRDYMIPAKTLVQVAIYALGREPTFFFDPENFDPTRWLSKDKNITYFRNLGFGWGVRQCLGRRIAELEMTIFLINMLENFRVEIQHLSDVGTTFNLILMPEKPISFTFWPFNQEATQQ
Chain of UniProt P51589 (whole entry, looked up): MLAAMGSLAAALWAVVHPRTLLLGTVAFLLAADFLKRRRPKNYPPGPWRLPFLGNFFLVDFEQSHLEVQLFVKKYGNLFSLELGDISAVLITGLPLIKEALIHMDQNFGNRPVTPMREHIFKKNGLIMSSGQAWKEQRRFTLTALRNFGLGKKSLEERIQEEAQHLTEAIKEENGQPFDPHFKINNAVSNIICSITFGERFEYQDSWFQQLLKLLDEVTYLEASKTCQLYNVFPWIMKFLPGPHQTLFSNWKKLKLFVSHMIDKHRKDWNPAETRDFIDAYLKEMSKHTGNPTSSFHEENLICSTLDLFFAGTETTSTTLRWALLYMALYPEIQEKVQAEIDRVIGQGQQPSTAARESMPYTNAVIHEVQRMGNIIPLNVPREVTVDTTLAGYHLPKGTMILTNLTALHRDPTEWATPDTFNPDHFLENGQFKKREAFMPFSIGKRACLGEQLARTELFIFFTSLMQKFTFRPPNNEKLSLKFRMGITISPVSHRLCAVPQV
Chain of UniProt P08684 (whole entry, looked up): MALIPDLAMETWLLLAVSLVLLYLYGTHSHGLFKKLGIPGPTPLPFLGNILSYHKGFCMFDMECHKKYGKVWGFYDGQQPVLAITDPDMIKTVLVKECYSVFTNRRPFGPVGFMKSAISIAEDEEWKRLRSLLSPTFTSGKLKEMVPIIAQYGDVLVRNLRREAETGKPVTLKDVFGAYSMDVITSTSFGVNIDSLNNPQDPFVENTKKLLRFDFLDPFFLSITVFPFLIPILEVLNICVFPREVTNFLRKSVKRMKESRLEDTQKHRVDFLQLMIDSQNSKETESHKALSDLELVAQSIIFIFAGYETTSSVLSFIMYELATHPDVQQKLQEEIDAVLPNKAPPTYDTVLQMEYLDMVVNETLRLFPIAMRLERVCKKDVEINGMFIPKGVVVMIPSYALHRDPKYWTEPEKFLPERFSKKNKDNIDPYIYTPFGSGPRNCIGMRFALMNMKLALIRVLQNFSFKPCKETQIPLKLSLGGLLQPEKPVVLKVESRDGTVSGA
Chain of UniProt O43704 (whole entry, looked up): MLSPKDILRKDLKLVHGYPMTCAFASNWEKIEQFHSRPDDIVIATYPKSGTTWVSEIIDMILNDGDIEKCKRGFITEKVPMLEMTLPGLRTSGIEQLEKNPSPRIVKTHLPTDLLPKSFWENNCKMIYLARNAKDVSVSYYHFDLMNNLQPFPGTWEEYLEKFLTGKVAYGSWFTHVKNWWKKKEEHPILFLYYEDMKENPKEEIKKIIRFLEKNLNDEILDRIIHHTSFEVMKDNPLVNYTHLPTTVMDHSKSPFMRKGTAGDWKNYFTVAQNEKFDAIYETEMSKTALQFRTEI
Chain of UniProt P16257 (whole entry, looked up): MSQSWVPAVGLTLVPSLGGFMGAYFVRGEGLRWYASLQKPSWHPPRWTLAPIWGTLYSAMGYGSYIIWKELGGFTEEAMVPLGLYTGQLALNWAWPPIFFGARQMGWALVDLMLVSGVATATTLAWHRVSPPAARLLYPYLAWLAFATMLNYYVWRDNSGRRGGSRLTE

With `O=C(O)[C@@H]1C[C@@H](O)CN1C(=O)[C@@H]1CCCN1` the −ΔG was 5.82 kcal/mol (iron(III) ion; complex formation, from log β; aqueous 0.15 M NaCl; 40 °C, MAH−2 complex species).
Under “inhibition of metabolism”, `COC(=O)c1ccc(/C=N/NS(=O)(=O)c2ccc(OC)c(OC)c2)cc1` is recorded as ~100% (carboxylesterase rat; substrate; Wistar rat liver microsomes; 10 µM, 20 min, 37 °C, together with: bis(p-nitrophenyl)phosphate 100 µM).
For `[2H]c1c(NS(C)(=O)=O)c([2H])c2c(C(=O)c3ccc(OCCCN(CCCC)CCCC)cc3)c(CCCC)oc2c1[2H]`, the half-life was 5.32 min (Cytochrome P450 2J2 (CYP2J2, Homo sapiens, UniProt P51589); metabolic stability; recombinant enzyme; 1 µM, enzyme 20 pmol/mL).
For `COc1cc2oc(-c3ccc(C(F)(F)F)cc3F)cc(=O)c2c(O)c1O`, “log conditional stability constant” read 5.8 (Fe(III); spectrophotometric titration; methanol/water 80/20 w/w; 25.0 °C, ionic strength 0.1 M, pH 2.0).
`C[C@@H]1COCCN1c1nc(-c2ccc(N)nc2)nc2c1C[C@@H]1COCCN21` has a remaining compound of 44% (CYP1A1; substrate; recombinant enzyme Supersomes; 1 µM, 60 min).
`O=C(O[C@@H]1Cc2c(O)cc(O)cc2O[C@@H]1c1cc(O)c(O)c(O)c1)c1cc(O)c(O)c(O)c1` gave a remaining fluorescence of 68.4% (ALB; binding, fluorescence quenching; 25 µM, 1 h, pH 3.0, together with: BSA 3 µM; reference: untreated).
`COc1c(C(=O)/C=C/c2ccccc2)c(O)c(OC)c2occc12` gave an inhibition of 97% (CYP1A1; HEK293 overexpressing CYP1A1; 10 µM).
For `C#Cc1ccc2oc(-c3ccccc3)cc(=O)c2c1`, the selectivity ratio was 177 (CYP1A1; EROD; reference: Ki CYP1A2 over Ki CYP1A1).
`[64Cu+2].c1ccc(CNCc2ccc(CN3CCCN4CCNCCCN(CC4)CC3)cc2)nc1` has a tissue uptake of 1.7 ± 0.2 %ID/g (CXCR4; NOD/SCID mouse, U87 and U87-stb-CXCR4 xenografts, pancreas; iv, 240 min, ex vivo).
`CCc1cc(C)n2nc(-c3ccc(OCC[18F])cc3)c(CC(=O)N(CC)CC)c2n1` — result for “total distribution volume”: 44.5 ± 8.27 mL/cm3 (Tspo (Rattus norvegicus, UniProt P16257); Logan plot analysis; rat C6 glioma model, tumor; dose not given, 60 min dynamic PET).
`COc1ccc2cc(NC(=O)c3cc(-c4ccncc4)nc4ccccc34)ccc2c1` gave a kcat/Km of 17200 M⁻¹ s⁻¹ (Cytochrome P450 3A4 (CYP3A4, Homo sapiens, UniProt P08684); substrate, refers to: metabolite M2; baculosomes).
For `C=C1CCC(O)CC1=CC=C1CCCC2(C)C1CCC2C(C)(C)O` (centres unmarked), “number of products” read 0 (CYP11A1; substrate; 50 µM, 2 h, 0.45% cyclodextrin, 1 µM enzyme).
Under CYP inhibition, `O=Cc1ccc(C2CCCCO2)o1` (centres unmarked) is recorded as “no inhibition” (human CYP1A2, 2B6, 2C8, 2C9, 2C19, 2D6, 3A4; human liver microsomes; 0.1 to 100 µM).
`O=C(O)C(O)Cc1ccc(O)c(O)c1` (centres unmarked) gave a relative activity of 18% (SULT1B1 (Homo sapiens, UniProt O43704); sulfation, substrate, cDNA-expressed enzyme; 500 µM, 120 min; reference: SULT1A3).
For `COc1cc2oc(-c3ccccc3)cc(=O)c2c(O)c1O`, “log conditional stability constant” read 5.4 (Fe(III); spectrophotometric titration; methanol/water 80/20 w/w; 25.0 °C, ionic strength 0.1 M, pH 2.0).
With `C=C1CCC(O)CC1=CC=C1CCCC2(C)C1CCC2C(C)(O)c1ccccc1` (centres unmarked) the substrate conversion was 83% (CYP11A1; substrate; 50 µM, 2 h, 0.45% cyclodextrin, 1 µM enzyme).
`Cn1ccn(N=Cc2ccccc2SSc2ccccc2C=Nn2ccn(C)c2=S)c1=S`: “adduct stability time” ≥ 8 h (ALB; optical absorption spectra; together with: BSA 40 µM).
`C=C1CCC(O)CC1=CC=C1CCCC2(C)C1CCC2C(C)(O)CCCCCC` (centres unmarked) — result for “number of products”: 7 (CYP11A1; substrate; 50 µM, 2 h, 0.45% cyclodextrin, 1 µM enzyme).
`COc1cc2oc(-c3ccc(OC(F)(F)F)cc3)cc(=O)c2c(O)c1O` — result for “log conditional stability constant”: 5.8 (Fe(III); spectrophotometric titration; methanol/water 80/20 w/w; 25.0 °C, ionic strength 0.1 M, pH 2.0).
With `[64Cu+2].c1cnc(CNCc2ccc(CN3CCCN4CCNCCCN(CC4)CC3)cc2)nc1` the tissue uptake was 0.77 ± 0.14 %ID/g (CXCR4; NOD/SCID mouse, U87 and U87-stb-CXCR4 xenografts, pancreas; iv, 90 min, no blocking dose, ex vivo).

For quick reference, copied from above:
For `COc1cc2oc(-c3ccc(C(F)(F)F)cc3F)cc(=O)c2c(O)c1O`, “log conditional stability constant” read 5.8 (Fe(III); spectrophotometric titration; methanol/water 80/20 w/w; 25.0 °C, ionic strength 0.1 M, pH 2.0).
`C[C@@H]1COCCN1c1nc(-c2ccc(N)nc2)nc2c1C[C@@H]1COCCN21` has a remaining compound of 44% (CYP1A1; substrate; recombinant enzyme Supersomes; 1 µM, 60 min).
